Measurements of several laboratories.
Each line is one published result; not all experiments were run side by side. ± marks the error that the study gave.
Organism: Staphylococcus aureus

For `O=C1c2ccccc2C(=O)c2c1ccc1c2C(C(=O)Nc2ccc(Br)cc2)C(=O)C1c1ccccc1` (stereo not drawn), the inhibition zone was 8 mm (microbial growth, disc diffusion; MTCC96; 100 µg/mL, 24 h).
For `Cc1c2c(cc3oc(=O)cc(-c4ccc(O)cc4)c13)C(=O)c1cccc(O)c1C2=O`, the inhibition zone was 8 mm (microbial growth, disc diffusion; MTCC96; 100 µg/disc).
`O=C1c2ccccc2C(=O)c2c1ccc1c2C(C(=O)Nc2ccccc2Cl)C(=O)C1c1ccccc1` (stereo not drawn) gave an inhibition zone of 12 mm (microbial growth, disc diffusion; MTCC96; 100 µg/mL, 24 h).
`CCOc1ccc(NC(=O)CSc2nc3ccccc3c(=O)n2-c2ccc(S(N)(=O)=O)cc2)cc1` has an inhibition zone of 28 mm (microbial growth, well diffusion; MRSA; 500 µg/mL, 24 h).
For `Cc1cc(O)cc2c1C(=O)c1c(cc3oc(=O)cc(-c4ccc(Cl)cc4)c3c1O)C2=O`, the inhibition zone was 16 mm (microbial growth, disc diffusion; MTCC96; 100 µg/disc).
For `CCc1ccc(NC(=O)CSc2nc3ccccc3c(=O)n2-c2ccc(S(N)(=O)=O)cc2)cc1`, the inhibition zone was 26 mm (microbial growth, well diffusion; ATCC29213; 500 µg/mL, 24 h).
`Cc1cccc(NCC(=O)Nc2nc3ccccc3s2)c1` gave an inhibition zone of 0 mm (microbial growth, disc diffusion; 100 µg/mL, 24 h).
For `Cc1ccc(NC(=O)C2C(=O)C(c3ccccc3)c3ccc4c(c32)C(=O)c2ccccc2C4=O)cc1` (stereo not drawn), the inhibition zone was 10 mm (microbial growth, disc diffusion; MTCC96; 100 µg/mL, 24 h).
The inhibition zone of `Cc1cc([N+](=O)[O-])ccc1NC(=O)CSc1nc2ccccc2c(=O)n1-c1ccc(S(N)(=O)=O)cc1` is reported as 35 mm (microbial growth, well diffusion; ATCC29213; 500 µg/mL, 24 h).
The inhibition zone of `Cc1cc(O)cc2c1C(=O)c1c(cc3oc(=O)cc(C)c3c1O)C2=O` is reported as 8 mm (microbial growth, disc diffusion; MTCC96; 100 µg/disc).
For `NS(=O)(=O)c1ccc(-n2c(SCC(=O)Nc3ccc([N+](=O)[O-])cc3[N+](=O)[O-])nc3ccccc3c2=O)cc1`, the inhibition zone was 26 mm (microbial growth, well diffusion; ATCC29213; 500 µg/mL, 24 h).
`C=C1CC(OC(=O)C(C)(O)CCl)C2C(=C)C(=O)OC2C2C1CC(O)C2(O)CCl` (stereo not drawn) gave an inhibition zone of 11 ± 0.43 mm (concentration not given).

Excerpt of the above:
For `Cc1ccc(NC(=O)C2C(=O)C(c3ccccc3)c3ccc4c(c32)C(=O)c2ccccc2C4=O)cc1` (stereo not drawn), the inhibition zone was 10 mm (microbial growth, disc diffusion; MTCC96; 100 µg/mL, 24 h).
